Published values pooled from the literature.
Compare with care: the assays were run in different laboratories. Several values in a cell are separate wells, animals, samples, runs or records. Numbers after ± are the reported error.
WD repeat-containing protein 91 WD40 domain, residues 392–747: WD repeat-containing protein 91, WD40 domain, residues 392–747 (Homo sapiens, UniProt A4D1P6)
Chain of UniProt A4D1P6 (whole entry, looked up): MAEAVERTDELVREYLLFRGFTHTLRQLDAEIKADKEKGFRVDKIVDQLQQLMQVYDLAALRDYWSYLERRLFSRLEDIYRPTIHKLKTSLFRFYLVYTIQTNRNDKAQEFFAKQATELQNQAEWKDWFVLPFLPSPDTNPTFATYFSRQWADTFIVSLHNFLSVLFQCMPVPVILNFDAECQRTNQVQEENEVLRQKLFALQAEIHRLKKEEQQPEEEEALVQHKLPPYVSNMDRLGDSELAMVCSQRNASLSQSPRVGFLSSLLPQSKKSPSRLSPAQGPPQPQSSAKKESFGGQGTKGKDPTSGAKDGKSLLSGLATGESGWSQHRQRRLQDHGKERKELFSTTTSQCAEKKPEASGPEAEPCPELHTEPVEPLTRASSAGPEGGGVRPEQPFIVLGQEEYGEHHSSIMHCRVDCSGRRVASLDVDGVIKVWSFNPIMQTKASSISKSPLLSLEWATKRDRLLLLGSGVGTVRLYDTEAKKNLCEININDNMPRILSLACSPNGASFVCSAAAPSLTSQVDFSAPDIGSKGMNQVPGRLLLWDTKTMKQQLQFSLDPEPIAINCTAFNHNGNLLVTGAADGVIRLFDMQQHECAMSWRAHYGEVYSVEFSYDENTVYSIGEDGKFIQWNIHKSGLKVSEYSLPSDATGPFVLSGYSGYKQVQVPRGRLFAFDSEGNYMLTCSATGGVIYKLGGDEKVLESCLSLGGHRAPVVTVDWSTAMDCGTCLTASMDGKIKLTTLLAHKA
ESR1: Estrogen receptor (ESR1, Homo sapiens, UniProt P03372)
Chain of UniProt P03372 (whole entry, looked up): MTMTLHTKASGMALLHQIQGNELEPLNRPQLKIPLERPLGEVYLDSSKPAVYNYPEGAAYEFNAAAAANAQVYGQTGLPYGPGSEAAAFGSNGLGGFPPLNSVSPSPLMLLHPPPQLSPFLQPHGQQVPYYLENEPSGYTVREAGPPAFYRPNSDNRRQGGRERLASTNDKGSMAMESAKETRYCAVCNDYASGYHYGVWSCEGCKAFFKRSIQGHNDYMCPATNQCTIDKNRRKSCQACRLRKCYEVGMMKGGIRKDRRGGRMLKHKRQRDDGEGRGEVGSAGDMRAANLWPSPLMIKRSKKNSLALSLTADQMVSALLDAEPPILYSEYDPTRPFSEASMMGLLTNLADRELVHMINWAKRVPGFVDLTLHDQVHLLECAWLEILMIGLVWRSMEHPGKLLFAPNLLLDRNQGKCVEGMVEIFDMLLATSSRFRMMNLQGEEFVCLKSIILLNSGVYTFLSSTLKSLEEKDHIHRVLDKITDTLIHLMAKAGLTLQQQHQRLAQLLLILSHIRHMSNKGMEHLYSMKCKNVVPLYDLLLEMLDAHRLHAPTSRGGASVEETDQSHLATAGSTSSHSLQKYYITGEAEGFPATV
Genome polyprotein NS3 helicase domain: Genome polyprotein, NS3 helicase domain (Hepatitis C virus genotype 1b, UniProt Q9WMX2)
Chain of UniProt Q16774 (whole entry, looked up): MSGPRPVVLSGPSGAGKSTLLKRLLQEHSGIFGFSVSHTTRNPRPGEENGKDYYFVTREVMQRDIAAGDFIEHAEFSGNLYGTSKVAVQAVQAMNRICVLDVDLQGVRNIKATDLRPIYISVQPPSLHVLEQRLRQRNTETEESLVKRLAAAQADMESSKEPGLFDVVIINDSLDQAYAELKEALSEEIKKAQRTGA
Chain of UniProt P51575 (whole entry, unmodified, looked up): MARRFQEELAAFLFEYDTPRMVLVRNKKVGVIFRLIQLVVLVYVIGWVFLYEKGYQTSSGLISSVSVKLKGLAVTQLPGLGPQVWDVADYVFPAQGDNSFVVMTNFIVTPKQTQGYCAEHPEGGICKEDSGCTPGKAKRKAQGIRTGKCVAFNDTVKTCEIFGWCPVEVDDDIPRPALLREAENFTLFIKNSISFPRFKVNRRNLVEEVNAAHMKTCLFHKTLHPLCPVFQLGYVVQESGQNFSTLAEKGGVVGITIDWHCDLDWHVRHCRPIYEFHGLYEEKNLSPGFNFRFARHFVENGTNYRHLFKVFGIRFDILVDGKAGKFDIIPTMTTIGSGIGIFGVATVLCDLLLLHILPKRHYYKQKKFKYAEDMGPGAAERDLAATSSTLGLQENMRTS

For CCC1(O)CCCN(C(=O)c2ccc(-c3ccc(F)c(NC(=O)CCl)c3)cc2)C1 (centres unmarked), the unmodified protein was 7% and 22% (DNA dC->dU-editing enzyme APOBEC-3B, C-terminal domain (Homo sapiens, UniProt Q9UH17); covalent modifier, intact protein mass spectrometry; 500 µM, 1 h, 20-fold molar excess).
Nc1nc2c(ncn2[C@@H]2O[C@H](COP(=O)(O)O)[C@@H](O)[C@H]2O)c(=O)[nH]1 has a reaction velocity of 0.0751 µM/s and 0.0694 µM/s and 0.0664 µM/s (GUK1 (Homo sapiens, UniProt Q16774); enzyme activity, NADH-coupled; 250 µM, added: NaCl 10 mM).
The SPR response of N#CC1CCN(C(=O)c2ccc(CCc3c[nH]c4nc(N)[nH]c(=O)c34)cc2)CC1 is reported as -3.9 RU and 2.3 RU (WD repeat-containing protein 91 WD40 domain, residues 392–747; binding, SPR single-concentration screen; 45 µM).
Cc1cccc(N2CC(C(=O)O)CC2=O)c1 (centres unmarked) — result for “log fold enrichment”: -0.145 (Transducin-like enhancer protein 4 (TLE4, Homo sapiens, UniProt Q04727); binding, affinity selection mass spectrometry; relative to: other proteins in batch).
O=C1CC[C@H](N2Cc3cc(N4CCN(CC5CCN(c6ccc([C@@H]7c8ccc(O)cc8CC[C@@H]7c7ccccc7)cc6)CC5)CC4)ccc3C2=O)C(=O)N1 has a degradation of at least 90% (ESR1; degrader, western blot; breast cancer cell lines; concentration not given, ER, wild type and mutant).
COc1cc(-c2cncc3c2CN(C)Cc2cc(N4CCNCC4)ccc2-3)cc(OC)c1OC gave a remaining activity of 123% (Cyclin-dependent kinase 12, with cyclin K (CDK12, Homo sapiens, UniProt Q9NYV4); kinase activity; 1 µM, human enzyme, added: ATP 10 µM; relative to: DMSO control).
CCN1CCC[C@H]1CNC(=O)c1c(O)c(Cl)cc(Cl)c1OC: “log2 fold change” 0.597 (Trace amine-associated receptor 9 (TAAR9, Homo sapiens, UniProt Q96RI9); β-arrestin recruitment, TANGO luminescence, measured: TAAR9; concentration not given; relative to: basal luminescence).
With CCCCN1/C(=C/C=C/c2sc3ccc(Br)cc3[n+]2CCCC)Sc2ccc(Br)cc21.[I-] the Hill coefficient was 2.44 (PRMT3 (Homo sapiens, UniProt O60678); inhibitor, filter binding; added: R4 peptide substrate).
With N#CC1CCN(C(=O)c2ccc(NS(=O)(=O)c3ccc4c(c3)OCCO4)cc2)CC1 the binding was 0% and -11% (WD repeat-containing protein 91 WD40 domain, residues 392–747; SPR; 45 µM).
For COC(=O)CCc1ccc(C(=O)N/N=C/C(Br)=C/c2ccccc2)cc1, enzyme activity read “no effect” (HDAC1 (Homo sapiens, UniProt Q13547); inhibitor, fluorogenic; 5 and 10 µM; relative to: SAHA).
With CN1CCN(C(=O)CN(C)S(=O)(=O)c2ccc3ccccc3c2)CC1 the Kd was over 100 µM (CDK2 (Homo sapiens, UniProt P24941); binding).
For CC(=O)N[C@H](C(=O)N1C[C@H](O)C[C@H]1C(=O)NCc1ccc(-c2scnc2C)cc1)C(C)(C)SCCCCCCNC(=O)C[C@@H]1N=C(c2ccc(Cl)cc2)c2c(sc(C)c2C)-n2c(C)nnc21, the −TΔS was -6.4 ± 0.3 kcal/mol (BRD2/VHL, BD1; with VCB (Homo sapiens, UniProt P25440+P40337); ITC; 25 °C, BRD2 BD1, ternary).
The activation of COC(=O)c1cn(C)c2ccc(-c3cccnc3)cc12 is reported as 0.54 fold (Nuclear receptor subfamily 4 group A member 3, ligand-binding domain (Homo sapiens, UniProt Q92570); reporter gene, Gal4 hybrid reporter; 10 µM; relative to: vehicle).
CC(C)(C)c1ccc(C(=O)Nc2sc3c(c2C(=O)O)CCC3)cc1 has an EC50 of 179 µM (Voltage-gated potassium channel, KQT; KCNQ2(Kv7.2)/KCNQ3(Kv7.3) (KCNQ3/KCNQ2, Homo sapiens, UniProt O43525+O43526); G(V) shift, activator, two-electrode voltage clamp; Xenopus oocytes; pH 7.4, up to 100 µM, at -17.2 mV).
The current density of Nc1ccc(C(=O)O)cc1 is reported as 21.6 pA/pF and 10 pA/pF and 12.8 pA/pF and 5.93 pA/pF and 13.4 pA/pF and 5.25 pA/pF (BEST1, with wild-type BEST1 (Homo sapiens, UniProt O76090, A10T); whole-cell patch clamp; HEK293 co-expressing WT and A10T mutant; concentration not given, membrane potential 40 mV).
CCCCC[C@H](O)/C=C/[C@H]1[C@H](O)CC(=O)[C@@H]1C/C=C\CCCC(=O)O gave an Emax of 98.8 ± 4.99% (PTGER1 (Homo sapiens, UniProt P34995, S306A); IP1 accumulation, agonist; AD293; 1 h, EP1 S306A mutant).
Nc1nc2c(cnn2CCc2ccccc2)c2nc(-c3ccco3)nn12 gave an inhibition of 0% (Genome polyprotein NS3 helicase domain; DNA binding, inhibitor; hepatitis C virus; 100 µM, added: Cy5-dT15 DNA).
With O=C1C[C@@H](c2ccc(O[C@@H]3O[C@H](CO)[C@@H](O)[C@H](O)[C@H]3O)cc2)Oc2cc(O)ccc21 the selectivity ratio was 3.16 (ESR1; array formation; PRL-HeLa; relative to: EC50 ERβ over EC50 ERα).
With Nc1ncnc2c(CN3CC(CSc4ccc(Cl)cc4)[C@H](O)C3)c[nH]c12 (some centres unmarked) the k4 was 0.23 min⁻¹ (Aminodeoxyfutalosine nucleosidase (Helicobacter pylori, UniProt Q9ZMY2); radiolabel chase ultrafiltration; pH 7.4, inhibitor off-rate).
Nc1ncnc2c1ncn2[C@@H]1O[C@H](COP(=O)(O)CP(=O)(O)OP(=O)(O)O)[C@@H](O)[C@H]1O gave a specific binding of 1220 CCPM and 1490 CCPM (P2X purinoceptor 1 (P2RX1, Homo sapiens, UniProt P51575, R139P); saturation binding; HEK293; 79 nM).
The selectivity ratio of COCCOC(=O)NC1CCN(c2ncnc3c2nc(-c2ccccc2Cl)n3-c2ccc(Cl)cc2)CC1 is reported as over 200 (CNR1 (Homo sapiens, UniProt P21554); binding, [3H]CP55940 displacement; relative to: Ki CB2 over Ki CB1).
With CC(C)NCC(O)COc1cccc2ccccc12 (centres unmarked) the potentiation was 98% (Glutamate receptor 2 (Homo sapiens, UniProt P42262); ion current, positive allosteric modulator, SyncroPatch patch clamp; HEK293; 3 µM).
COc1cc(/C=C2\CCC/C(=C\c3ccc(O)c(OC)c3)C2=O)ccc1O has a ΔH of -23.76 ± 0.0669 kcal/mol (haemin; binding, isothermal titration calorimetry; pH 7.4, 37 °C).
O=C1CC2(CCCC2)CC(=O)N1CCCCN1CCN(c2ncccn2)CC1 has an inhibition of 0% (Genome polyprotein NS3 helicase domain; DNA binding, inhibitor; hepatitis C virus; 100 µM, added: Cy5-dT15 DNA).
With O=c1nc(SCc2cc(F)cc(C(F)(F)F)c2)nc(SCc2csc3ccc(Cl)cc23)[nH]1 the relaxed DNA was 0% (TOP2A (Homo sapiens, UniProt P11388); DNA relaxation; 15.6 µM, replicate 1).
The inhibition of N#C/C(=C\c1ccc(O)c(O)c1)C(=O)NCCCNC(=O)/C(C#N)=C/c1ccc(O)c(O)c1 is reported as 37% (Genome polyprotein NS3 helicase domain; DNA binding, inhibitor; hepatitis C virus; 100 µM, added: Cy5-dT15 DNA).
For N#Cc1cccc2c1CC[C@H]2NC(=O)c1ccc(SCc2cn3ccccc3n2)cc1, the SPR response was 30.2 RU and 48.2 RU (WD repeat-containing protein 91 WD40 domain, residues 392–747; binding, SPR single-concentration screen; 45 µM).
With O=C(O)C1CN(CCCP(=O)(O)O)CCN1 (racemic) the inhibition was 1% (Genome polyprotein NS3 helicase domain; DNA binding, inhibitor; hepatitis C virus; 100 µM, added: Cy5-dT15 DNA).
COc1ccc(-c2cc(=O)c3c(O)cc(O)cc3o2)cc1 gave a selectivity ratio of 5.9 (ESR1; array formation; PRL-HeLa; relative to: EC50 ERβ over EC50 ERα).
For NC(=O)c1cccnc1, the product formation was -2.63 µM (N-alpha-acetyltransferase 80 (NAA80, Homo sapiens, UniProt Q93015); substrate, DTNB; 2 mM, 30 min, 37 °C, added: acetyl-CoA 500 µM).
O=C(COP(=O)(O)O)[C@@H](O)[C@H](O)[C@H](O)COP(=O)(O)O — result for “thermal stability ratio”: 4.39 (Erlin-1 (Homo sapiens, UniProt O75477); thermal proteome profiling; HepG2 cell lysate; concentration not given, 57 over 37 °C, mean; relative to: compound over control).
The inhibition of Cl.N[C@@H](Cc1cnc[nH]1)C(=O)O is reported as 0% (Genome polyprotein NS3 helicase domain; DNA binding, inhibitor; hepatitis C virus; 100 µM, added: Cy5-dT15 DNA).
For CCOC(=O)c1cnc(Nc2nc3ccccc3o2)nc1CN1CCN(c2ccccc2)CC1, the Kd was over 100 µM (Cyclin-dependent kinase 2, with cyclin A (CDK2, Homo sapiens, UniProt P24941)).
For N#CC1CCN(C(=O)c2ccc(CNC(=O)OCc3ccccc3)cc2)CC1, the binding was -5% and 2% (WD repeat-containing protein 91 WD40 domain, residues 392–747; SPR; 45 µM).
With CN(C)CCOC(=O)COc1ccc(Cl)cc1 the inhibition was 0% (Genome polyprotein NS3 helicase domain; DNA binding, inhibitor; hepatitis C virus; 100 µM, added: Cy5-dT15 DNA).
With CC[C@H](C)[C@H](NC(=O)[C@H](CCCCN)NC(=O)CNC(=O)[C@@H](NC(=O)[C@@H](NC(=O)[C@H](CCSC)NC(=O)[C@H](Cc1c[nH]cn1)NC(=O)CN)[C@@H](C)O)C(C)C)C(=O)N[C@@H](Cc1ccc(O)cc1)C(=O)N[C@@H](C)C(=O)N[C@@H](C)C(=O)N[C@@H](CCSC)C(=O)N[C@@H](CCSC)C(=O)N[C@@H](C)C(=O)N[C@@H](CCSC)C(=O)N[C@@H](CCC(=O)O)C(=O)N[C@@H](Cc1ccc(O)cc1)C(=O)N[C@@H](Cc1ccc(O)cc1)C(=O)N[C@@H](CCCNC(=N)N)C(=O)N[C@@H](CCC(N)=O)C(=O)N[C@@H](CO)C(=O)N[C@@H](CCCCN)C(=O)N[C@@H](C)C(=O)N[C@@H](CCCCN)C(=O)N[C@@H](CCCCN)C(=O)N[C@@H](CC(C)C)C(=O)N[C@@H](CCC(N)=O)C(=O)N[C@@H](C)C(=O)N[C@@H](CCSC)C(=O)N[C@@H](CCCNC(=N)N)C(=O)O the stoichiometry was 0.82 ± 0.01 (Calmodulin-1, Ca2+-bound N-lobe (CALM1, Homo sapiens, UniProt P0DP23); binding, isothermal titration calorimetry; pH 7.4, 15 °C, N-lobe, CaV2.1 IQ domain, added: Ca2+).
O=C(Nc1ccc(F)cc1)Nc1cccc2c1CCN(C(=O)c1cc3cccn3cn1)C2 has an SPR response of -5.6 RU and -19 RU (WD repeat-containing protein 91 WD40 domain, residues 392–747; binding, SPR single-concentration screen; 45 µM).
Under “log fold enrichment”, CC(Oc1ccccc1)C(=O)NCc1ccccn1 (centres unmarked) is recorded as -0.0198 (WD repeat-containing protein 91 (Homo sapiens, UniProt A4D1P6); binding, affinity selection mass spectrometry; relative to: other proteins in batch).
NCCCC(=O)O: “normalised MST signal” 0.0225 (SLC6A6 (Homo sapiens, UniProt P31641, Y138A); binding, microscale thermophoresis; 1 mM, room temperature, added: 50 nM labelled protein; higher = more binding).
CSc1ccc(C(=O)c2[nH]c(=O)[nH]c2C)cc1 has an inhibition of 0% (Genome polyprotein NS3 helicase domain; DNA binding, inhibitor; hepatitis C virus; 100 µM, added: Cy5-dT15 DNA).
For CN1CCN(c2cc(-c3ccncc3)c(-c3ccc4ccccc4c3)nn2)CC1, the activation was -1.2% (SSTR4 (Homo sapiens, UniProt P31391); agonist, FLIPR; 12.5 µM).

Repeated from above:
Cc1cccc(N2CC(C(=O)O)CC2=O)c1 (centres unmarked) — result for “log fold enrichment”: -0.145 (Transducin-like enhancer protein 4 (TLE4, Homo sapiens, UniProt Q04727); binding, affinity selection mass spectrometry; relative to: other proteins in batch).
O=C1CC[C@H](N2Cc3cc(N4CCN(CC5CCN(c6ccc([C@@H]7c8ccc(O)cc8CC[C@@H]7c7ccccc7)cc6)CC5)CC4)ccc3C2=O)C(=O)N1 has a degradation of at least 90% (ESR1; degrader, western blot; breast cancer cell lines; concentration not given, ER, wild type and mutant).
COc1cc(-c2cncc3c2CN(C)Cc2cc(N4CCNCC4)ccc2-3)cc(OC)c1OC gave a remaining activity of 123% (Cyclin-dependent kinase 12, with cyclin K (CDK12, Homo sapiens, UniProt Q9NYV4); kinase activity; 1 µM, human enzyme, added: ATP 10 µM; relative to: DMSO control).
CCN1CCC[C@H]1CNC(=O)c1c(O)c(Cl)cc(Cl)c1OC: “log2 fold change” 0.597 (Trace amine-associated receptor 9 (TAAR9, Homo sapiens, UniProt Q96RI9); β-arrestin recruitment, TANGO luminescence, measured: TAAR9; concentration not given; relative to: basal luminescence).
